Results gathered from unrelated publications.
Numbered parts are unrelated; each lists some results of a single study.

Set 1
Target: Sal-like protein 4, full length isoform B (SALL4, Homo sapiens, UniProt Q9UJQ4-2, residues 1-616)
Method: universal PBM
Molecule type: double-stranded DNA, one strand shown
Matrix: in vitro
Concentration: not given
Setting: 8-mer, flanks averaged, mean of replicates
Direction: higher = stronger binding
Target sequence (chain): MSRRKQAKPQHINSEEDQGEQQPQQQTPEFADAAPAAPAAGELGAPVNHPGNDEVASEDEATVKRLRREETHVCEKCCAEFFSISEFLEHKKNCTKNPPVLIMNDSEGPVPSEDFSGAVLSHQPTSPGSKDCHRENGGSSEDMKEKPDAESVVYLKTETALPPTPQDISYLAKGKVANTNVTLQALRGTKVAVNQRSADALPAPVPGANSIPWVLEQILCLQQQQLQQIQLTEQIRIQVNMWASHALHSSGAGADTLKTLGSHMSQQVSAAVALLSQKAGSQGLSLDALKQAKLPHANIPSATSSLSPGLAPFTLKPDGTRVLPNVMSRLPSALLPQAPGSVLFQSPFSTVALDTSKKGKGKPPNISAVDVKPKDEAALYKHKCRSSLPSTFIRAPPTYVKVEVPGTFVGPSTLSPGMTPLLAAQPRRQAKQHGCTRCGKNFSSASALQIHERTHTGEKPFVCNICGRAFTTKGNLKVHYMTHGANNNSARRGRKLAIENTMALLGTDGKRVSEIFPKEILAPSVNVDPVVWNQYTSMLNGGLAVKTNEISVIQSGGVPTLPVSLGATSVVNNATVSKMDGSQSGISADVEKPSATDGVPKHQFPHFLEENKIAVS
Strand	E-score
ATCTTGTC	0.071
ACAGCGCT	-0.0633
GGACCGAC	-0.329
GAAGTCCA	-0.0669
TACCAACA	0.149
CCCGGAAG	-0.323
ATTGAGGA	0.0728
AGTATCGG	0.0346
ACTCCAAG	-0.0543
GGGTACAA	-0.0251
ACCTACCG	-0.153
GCGGCACA	-0.141
ATAGCGAG	0.0131
AGGCACTA	-0.144
AATGTAGT	0.192
AGACCCCA	-0.113
ACCTCGAA	-0.0273
CCTTTTAG	-0.0624

Set 2
Target: Interferon regulatory factor 3, full length, phosphomimetic (IRF3, Homo sapiens, UniProt Q14653, residues 1-427, S386D/S396D/S398D/S402D/T404D/S405D)
Method: protein-binding microarray
Molecule type: double-stranded DNA, one strand shown
Matrix: in vitro
Concentration: 2540 nM top
Setting: 60-bp whole probe
With: salmon DNA 0.4 mg/ml
Baseline: random background probes
Direction: higher = stronger binding
Constant ends, left off below: GCCTAGCAC … GTCTTGATTCGCTTGACGCTGCTG
Residues (chain): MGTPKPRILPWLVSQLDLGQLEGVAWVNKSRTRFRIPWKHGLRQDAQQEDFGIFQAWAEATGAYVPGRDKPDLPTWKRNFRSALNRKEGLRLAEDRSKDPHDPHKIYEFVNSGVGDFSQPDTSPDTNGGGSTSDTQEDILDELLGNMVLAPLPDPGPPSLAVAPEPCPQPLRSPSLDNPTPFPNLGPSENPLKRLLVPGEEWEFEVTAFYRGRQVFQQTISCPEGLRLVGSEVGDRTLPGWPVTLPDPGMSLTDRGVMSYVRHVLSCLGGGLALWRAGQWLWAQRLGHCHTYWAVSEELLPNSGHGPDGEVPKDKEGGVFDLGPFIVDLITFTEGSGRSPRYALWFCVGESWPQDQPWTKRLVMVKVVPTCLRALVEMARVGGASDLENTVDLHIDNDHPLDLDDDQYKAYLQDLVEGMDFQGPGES
Strand	fitted relative affinity [z-score]
GACGGTATCGGTCTCGAGACGTGCTAG	4.7
TTAGAACTCGGGACTGGATTAGTGCTA	-0.593
TTAGGTTTCGTTCTCCTTTAGTGCTAG	8.08
TTAGGTATCGAACTGGGTTAGTGCTAG	0.465
TTAGAACTGAGTCTCCATTAGTGCTAG	-0.0268
GACGGTCTCCTTTTCCTGATGTGCTAG	4.43
GACGGACTGGACTTTCTGGACGTGCTA	-0.383
TAAGATATCGGGTTTCGATTAGTGCTA	2.12
GACGGTTTCGGGCATCGGGACGTGCTA	2.77
TCACCTTGGCCTCTAGGACTGTGCTAG	-0.41
TTCGATTTCAGTATCGATTAGTGCTAG	3.04
TTATATATCGGGACTGGATTAGTGCTA	0.349
GACCGTCTCCTTATCCTGACGTGCTAG	2.56
GACGGACTTCTACTGCTGACGTGCTAG	-0.376
GACGGTTTCCTTCTCCTGACGTGCTAG	10.4
TAAGGTTTCGACTTTCGGTTAGTGCTA	3.78
TTAGGTTTCCTTTCACTTTAGTGCTAG	10.3
TTAGGTATCCATATCCTTTAGTGCTAG	3.94
TGATCCAAAAAGTGTGAGAAGTGCTAG	0.773
TTAGGTTTCGGTTTCGGTTCGTGCTAG	12
TCACCTCTAGGTTTTCTACTGTGCTAG	0.502
TGTTTTACAGGTTCTCTTTTAGTGCTA	1.76
GACGATATCGGGACTGGCGACGTGCTA	0.015
TTAGGTTTCCTACGGCTTTAGTGCTAG	1.94
GACGGTTTCGTGTATCGGGACGTGCTA	2.99

Set 3
Target: RNA binding protein fox-1 homolog 2, RRM domain, GST-SBP tag (RBFOX2, Homo sapiens, UniProt O43251-10, residues 100-194)
Method: RNA Bind-n-Seq
Molecule type: RNA
Matrix: in vitro
Concentration: 365 nM
Setting: natural RNA segment, single round, ends assumed
Baseline: no-protein control
Direction: higher = stronger binding
Constant ends, left off below: GGGAGUUCUACAGUCCGACGAUC … UGGAAUUCUCGGGUGCCAA
Construct (chain): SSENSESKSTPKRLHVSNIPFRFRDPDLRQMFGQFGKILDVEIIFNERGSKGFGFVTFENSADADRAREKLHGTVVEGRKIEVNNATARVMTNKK
Strand	RBNS enrichment (R)
AUGGGAGAGCUCUGGCAGAUGUCCCAAUCCUGGAGGUCAUCCAUUAGGAAUUAAAUUCUCCAGCCUCACUCUCGGCUCUUUCCUACUUGUUAGUAGUCUUGGGAUGGUGG	0.328
CUUUGUGCAGCAAAGAUCCCCGUGCAGGUCACAGCCUGAUUUGUGGCCAGGCUGGACAAAUUCCUGAGGCACAACUUGGCUUCAGUUCAGAUUUCAAGCUGUGUUGGUGU	1.15
CCUGUGGAUCCCGUCAGGAGGGACUUAGUGGCUCUGCCGCCAGUGAGACUUCCCGCCGGCAGCUGUGCGCACCAAAGACUCGGGAGAACUGGAAAGGCUGUCUGGGGUCU	0.251
UCCAGUUCCCCGUUUAGAACUCAUUAGCUGUGUGACUCUGGGUGAGUCCCUUAACCCCUCUGAGCCCGGGUCUCUUCAUUAGUUGAAAGGGAUAGUAAUACCUACUUGCA	1.45
GACUAUAUAUAGGGAUCACAAAGUGUCACAUGUUAGAAUGCUGACCUUCCACAUGGGGUUAUUGUGAGUCAUCAGAGCAUAUUUAUUAUAACUUAUUGUUCAUAUUCAUU	0.774
AGAUUGCCCGGUCCACGAGGGAAAUGCCCAGUGCCCUCAGCAUCCUUCUCCUUGGCGUGGCUUACUUCAAGGGGCAGUGGGUAACCAAGUUUGACUCGAGAAAGACGACC	0.982
CAUGUGCAAUUUGUAAAAUGAACCAGAUGUCACUACUUUUGUCUUUAUUUCAAGAAUAUGGCCAUCACUGUUCUCUUAUACAUGUUCUUUUCCAUAUUUUAAUUAUCAAA	0.465
UGAGAUACAUUGUUUUGGAAAUUCAUACAAUUUUCUCAACAUGGUACUCUACUGGCAGGAUGCAGUUUUAAAUUUUAUGCCAUCAGUUAUUUAUUCUUGUUUAUUCAAAU	0.775
CCUCCUUCCCUUGCUCCUCCUCUGGAGAAGCACUAAUUACACAGGGGAUAGCAAAGUAGCACUUUACAAAUGGCCAUGGCGUUCAUCCCAAGAGCCACCAGCUCUUCUUA	0.16
AAGAAAAGAUUUGGUUGCCAUAGUCAUAAGCAAUGAUACAUGAAACCAAUGAAAGACAGUACAUGUAAUAAUAUUUUCCUCAGUACAAUUUUGCUGGCCUUAACUGGUAU	0.349
CACAACAAGAAAUUCUUUAAAGCUGUGGAAGAAAUCUAGACGUGAGGGCCAGUCCAGGCUGUCAGCCCAUGCAGCUGACACUGGUUGGUCUCUCAGUAUGUGGGAAAUCC	0.306
GAGUUUUGGAGGACCCCGGUCCCCACAAUGCCAGGCUGCAGGAUAACUGCCAUCCCCUUCUGUGAGUUAUGUACGGGGACUUAGACUGUCCUGUGCAGAGGUGGAGGGCA	0.899

Set 4
Target: RING finger protein unkempt homolog, zinc fingers 1-6, GST-SBP tag (UNK, Homo sapiens, UniProt Q9C0B0, residues 30-357)
Sequence of UniProt Q9C0B0 (30-357, looked up): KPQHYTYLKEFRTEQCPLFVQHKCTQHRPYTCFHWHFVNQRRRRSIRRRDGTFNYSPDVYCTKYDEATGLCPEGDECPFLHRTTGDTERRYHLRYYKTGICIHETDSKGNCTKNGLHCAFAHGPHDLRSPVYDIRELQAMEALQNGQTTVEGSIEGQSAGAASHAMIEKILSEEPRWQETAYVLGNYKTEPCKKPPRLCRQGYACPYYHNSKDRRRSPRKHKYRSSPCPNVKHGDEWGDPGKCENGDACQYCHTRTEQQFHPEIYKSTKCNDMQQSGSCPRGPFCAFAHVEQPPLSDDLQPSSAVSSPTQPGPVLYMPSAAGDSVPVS
Method: RNA Bind-n-Seq
Molecule type: RNA
Matrix: in vitro
Concentration: not given
Setting: RNA with constant flanks, human and mouse sites, ends assumed
Baseline: input RNA pool
Direction: higher = stronger binding
Constant ends, left off below: GGGAGUUCUACAGUCCGACGAUC … CAACAGAGGAUUGAGCAUCA
Strand	bound/input enrichment [ratio]
GACGACGAGGCUGCCAUGGGCAUUAAAAGCUGUGACCCCAAAGGCCCUCUUAUGAUGUAUAUUUCCAAAAUGGUGCCAACCUCCGACAAAGGUCGGUUCUACGCCUUUGGACGAGUCUUC	0.157
ACUGCAGAUCAGAUCAGUUCUCUUUGUGGAUUAUAUUUUCAGUAAAAUGUAUGGAUCUAUCUUUUCCUUGUUCUUAUAUCUAGAUCAUGAGACUUGACUGAGGCUGUAUCCUUAUCCUCC	0.193
UAAUAUUUUUGUGAACUGGUGUAAAUUGUUAAUGCAUAUAAGCUUGUGUAUUUUUGUAAAUAGUUUUGUGAUUUAUUUCUUGCCCCAUAUGUAAAUAUUUAGAGUCUCAUUUCUUGCAAA	1.77
CUGGAUACAGUGGAGGAUGACAUGAGCAUCAGUGUGGAGAAGAAGAUCCCACUGCUGUGUAACUUCCACACUUUCCUCUAUGACCCAGAGUGGCGGUUCACUGAGAGCAAGGAGAAGGAC	0.156
GCACUAGGGUAGAGAGAAAGCGGCACCAGCCAACGGCCUCUGUGCACGUGUGUGCUCUAGUAGCUCAGAGCAGCAAGAAGAAAUGGUUUCCUAUCUGCUGAGGCAAGGGAUGGCACUCGG	0.234
UUGUCGAAGACUCAACGAAAGACUCCAACCGUUAUUCAUAAACAUUACCAAAUACAUCGCAUUAGACAUUUUUACAUGAGAAAAGUCAAAUUUACUCAACAGAAUUACCAUGAUAGACUU	68.5
CACUGCCUGAUGACACCUUCCGCGACCUGGGCAACCUCACACACCUCUUCCUGCACGGCAACCGCAUCUCCAGCGUGCCCGAGCGCGCCUUCCGUGGGCUGCACAGCCUCGACCGUCUCC	0.229
ACCCACACAGGGCGCUCGGAGAUUUUUUUUUUUUAAAGCAGGGUUAACUGUUUUUUGGCAGCUUGGUUUCUGGGGGACUCUAUAGAAGGCCUUUCGGGAUUUCUUUCUUUGGGGGGAGGG	1.69
AAAUUCAAAGGCCCCUUCACAGAUGUAGUCACUACAAAUCUUAAAUUGCGAAAUCCAUCGGAUAGAAAAGUGUGUUUCAAAGUGAAGACUACAGCACCUCGCCGGUACUGUGUGAGGCCC	0.282
CUGCAACCAACCUCAGGAUGCUAUUAAAUGCUAUUUAAAUGCAACUAGAAGCAAAAAUUGUAGUAAUACCUCUGGACUUGCAGCACGAAUUAAGUAUUUACAGAAUACUUCUGAUAAUUG	0.296
UCUCGGGAACAGCUUGCGAUUGCAGAGUUUGCAAGAUCACUUCUUGUUAUUCCCAAUACACUAGCAGUUAAUGCUGCCCAGGACUCCACAGAUCUGGUUGCAAAAUUAAGAGCUUUUCAU	0.12

Repeated from above (set 4):
Strand	bound/input enrichment [ratio]
UAAUAUUUUUGUGAACUGGUGUAAAUUGUUAAUGCAUAUAAGCUUGUGUAUUUUUGUAAAUAGUUUUGUGAUUUAUUUCUUGCCCCAUAUGUAAAUAUUUAGAGUCUCAUUUCUUGCAAA	1.77
UUGUCGAAGACUCAACGAAAGACUCCAACCGUUAUUCAUAAACAUUACCAAAUACAUCGCAUUAGACAUUUUUACAUGAGAAAAGUCAAAUUUACUCAACAGAAUUACCAUGAUAGACUU	68.5
ACCCACACAGGGCGCUCGGAGAUUUUUUUUUUUUAAAGCAGGGUUAACUGUUUUUUGGCAGCUUGGUUUCUGGGGGACUCUAUAGAAGGCCUUUCGGGAUUUCUUUCUUUGGGGGGAGGG	1.69
AAAUUCAAAGGCCCCUUCACAGAUGUAGUCACUACAAAUCUUAAAUUGCGAAAUCCAUCGGAUAGAAAAGUGUGUUUCAAAGUGAAGACUACAGCACCUCGCCGGUACUGUGUGAGGCCC	0.282
ACUGCAGAUCAGAUCAGUUCUCUUUGUGGAUUAUAUUUUCAGUAAAAUGUAUGGAUCUAUCUUUUCCUUGUUCUUAUAUCUAGAUCAUGAGACUUGACUGAGGCUGUAUCCUUAUCCUCC	0.193
GACGACGAGGCUGCCAUGGGCAUUAAAAGCUGUGACCCCAAAGGCCCUCUUAUGAUGUAUAUUUCCAAAAUGGUGCCAACCUCCGACAAAGGUCGGUUCUACGCCUUUGGACGAGUCUUC	0.157
CACUGCCUGAUGACACCUUCCGCGACCUGGGCAACCUCACACACCUCUUCCUGCACGGCAACCGCAUCUCCAGCGUGCCCGAGCGCGCCUUCCGUGGGCUGCACAGCCUCGACCGUCUCC	0.229
UCUCGGGAACAGCUUGCGAUUGCAGAGUUUGCAAGAUCACUUCUUGUUAUUCCCAAUACACUAGCAGUUAAUGCUGCCCAGGACUCCACAGAUCUGGUUGCAAAAUUAAGAGCUUUUCAU	0.12
CUGCAACCAACCUCAGGAUGCUAUUAAAUGCUAUUUAAAUGCAACUAGAAGCAAAAAUUGUAGUAAUACCUCUGGACUUGCAGCACGAAUUAAGUAUUUACAGAAUACUUCUGAUAAUUG	0.296
